Measurements collected from several papers.

SMILES = C=CC(=O)NC1CCN(c2ncc3ncnc(Nc4ccc(Oc5ccc6c(c5)ncn6C)c(C)c4)c3n2)CC1; test system = healthy male human; conditions = oral, 60 mg, 2 weeks, maximum CTCAE grade 3; quantity = subjects with adverse events; value = 0%
SMILES = C[C@@H](c1nc(-c2ccc(C#N)cc2)cs1)[C@](O)(Cn1cncn1)c1cc(F)ccc1F; test = gastroesophageal reflux disease; test system = human; conditions = oral, dose not given, together with: ethinyl estradiol/norethindrone; quantity = subjects with adverse event; value = 4.3%
SMILES = COC(=O)N[C@H](C(=O)N1CCC[C@H]1c1ncc(-c2cc(F)c3c(c2)O[C@@H](c2cnc(C4CC4)s2)n2c-3cc3cc(-c4cnc([C@@H]5CCCN5C(=O)[C@@H](NC(=O)OC)C(C)C)[nH]4)ccc32)[nH]1)C(C)C; test system = healthy adult human; conditions = oral, 180 mg, 6 days, compound alone; quantity = subjects with abdominal pain; value = 0%
SMILES = CO[C@H]1/C=C/O[C@@]2(C)Oc3c(C)c(O)c4c(O)c(c(/C=N/N5CCN(C)CC5)c(O)c4c3C2=O)NC(=O)/C(C)=C\C=C\[C@H](C)[C@H](O)[C@@H](C)[C@@H](O)[C@@H](C)[C@H](OC(C)=O)[C@@H]1C; test = item: upper respiratory tract infection; test system = humans; conditions = oral, dose not given; quantity = subjects with TEAEs; value = 0%
SMILES = C[C@H]1CN(C(=O)CC#N)[C@]12CCN(c1ncnc3[nH]ccc13)C2; test system = healthy human; conditions = oral, 6 mg single; quantity = subjects with dry skin; value = 0%
SMILES = CC(=O)N(C)[C@H]1CCN(C(=O)c2cnc3c(c2)C[C@](C)(c2ccc(F)cc2)N3)C1; test system = healthy male human; conditions = oral, dose not given, all doses pooled; quantity = subjects with serious AEs; value = 0%
SMILES = C[C@H]1O[C@@H](O[C@H]2[C@@H](O)C[C@H](O[C@H]3[C@@H](O)C[C@H](O[C@H]4CC[C@@]5(C)[C@H](CC[C@@H]6[C@@H]5C[C@@H](O)[C@]5(C)[C@@H](C7=CC(=O)OC7)CC[C@]65O)C4)O[C@@H]3C)O[C@@H]2C)C[C@H](O)[C@@H]1O; test = item: Headache; test system = healthy human; conditions = oral, dose not given; quantity = subjects with adverse event; value = 4.2%
SMILES = C[C@]12C=CC(=O)C=C1CC[C@@H]1[C@@H]2C(=O)C[C@@]2(C)[C@H]1CC[C@]2(O)C(=O)CO; test system = healthy human subjects; conditions = oral, dose not given; quantity = subjects with TEAEs; value = 9.5%
SMILES = CC(=O)CC(c1ccccc1)c1c(O)c2ccccc2oc1=O (stereo not shown); test system = human; conditions = concentration not given, trial 1; quantity = subjects AE-related withdrawal; value = 0%
SMILES = CCO; test system = human; quantity = subjects with treatment-emergent adverse events; value = 88.9%
SMILES = C=C(C)[C@@H]1CC[C@]2(NCCN3CCS(=O)(=O)CC3)CC[C@]3(C)[C@H](CC[C@@H]4[C@@]5(C)CC=C(C6=CC[C@@](CF)(C(=O)O)CC6)C(C)(C)[C@@H]5CC[C@]43C)[C@@H]12; test system = healthy human volunteers; conditions = oral, 500 mg, 7 days; quantity = subjects with groin pain; value = 17%
SMILES = Cc1nc(Nc2ncc(C(=O)Nc3c(C)cccc3Cl)s2)cc(N2CCN(CCO)CC2)n1; test system = human; conditions = oral, 100 mg; quantity = subjects with related SAE; value = 0%
SMILES = CO[C@H]1/C=C/O[C@@]2(C)Oc3c(C)c(O)c4c(O)c(c(/C=N/N5CCN(C)CC5)c(O)c4c3C2=O)NC(=O)/C(C)=C\C=C\[C@H](C)[C@H](O)[C@@H](C)[C@@H](O)[C@@H](C)[C@H](OC(C)=O)[C@@H]1C; test system = healthy humans; conditions = oral, 600 mg, together with: gepotidacin 1500 mg; quantity = subjects with abdominal pain; value = 0%
SMILES = CO[C@]1(C(=O)N[C@@H](C)c2ccc(-n3cc(F)cn3)nc2)CC[C@H](c2nc(C)cc(Nc3cc(C)[nH]n3)n2)CC1; test system = healthy human; conditions = oral, dose not given, both treatments; quantity = subjects with adverse events; value = 40%
SMILES = CN(C)C(=N)N=C(N)N; test = item: Diarrhea; test system = healthy human; conditions = oral, dose not given; quantity = subjects with adverse event; value = 20.8%
SMILES = Cc1cc(-c2nccc3c2ccn3CC(=O)Nc2ccc(-c3cnccn3)cn2)ccn1; test system = human; conditions = 15 mg once daily, multiple ascending dose; quantity = subjects with Epistaxis adverse event; value = 11.1%
SMILES = CC(C)(C(=O)N1CCOc2c(C#N)cncc2C1)C(F)F; test = item: general and administration site conditions; test system = healthy humans, both sexes; conditions = oral, 40 mg single dose; quantity = subjects with TEAE; value = 16.7%
SMILES = O=C(COc1ccc(Cl)cc1)NC12CC(c3nnc([C@H]4C[C@@H](OC(F)(F)F)C4)o3)(C1)C2; test system = humans; conditions = concentration not given; quantity = subjects with moderate TEAE; value = 28.6%
SMILES = C[C@@H](N)c1cc(Cl)ccc1Cn1c(=S)[nH]c(=O)c2[nH]ccc21; test system = human; conditions = oral, 2.5 mg single dose; quantity = subjects with severe adverse events; value = 0%
SMILES = CC[C@H](C)[C@H](NC(=O)[C@H](Cc1ccccc1)NC(=O)[C@H](CCC(=O)O)NC(=O)[C@H](CCCCNC(=O)COCCOCCNC(=O)COCCOCCNC(=O)CC[C@H](NC(=O)CCCCCCCCCCCCCCCCC(=O)O)C(=O)O)NC(=O)[C@H](C)NC(=O)[C@H](C)NC(=O)[C@H](CCC(N)=O)NC(=O)CNC(=O)[C@H](CCC(=O)O)NC(=O)[C@H](CC(C)C)NC(=O)[C@H](Cc1ccc(O)cc1)NC(=O)[C@H](CO)NC(=O)[C@H](CO)NC(=O)[C@@H](NC(=O)[C@H](CC(=O)O)NC(=O)[C@H](CO)NC(=O)[C@@H](NC(=O)[C@H](Cc1ccccc1)NC(=O)[C@@H](NC(=O)CNC(=O)[C@H](CCC(=O)O)NC(=O)C(C)(C)NC(=O)[C@@H](N)Cc1cnc[nH]1)[C@@H](C)O)[C@@H](C)O)C(C)C)C(=O)N[C@@H](C)C(=O)N[C@@H](Cc1c[nH]c2ccccc12)C(=O)N[C@@H](CC(C)C)C(=O)N[C@H](C(=O)N[C@@H](CCCNC(=N)N)C(=O)NCC(=O)N[C@@H](CCCNC(=N)N)C(=O)NCC(=O)O)C(C)C; test system = healthy human; conditions = subcutaneous, 0.25 to 1.5 mg weekly, 16 weeks; quantity = subjects with serious adverse events; value = 1.2%
SMILES = C[C@@H](Oc1ccc(S(C)(=O)=O)cc1C(=O)N1C[C@@H]2C[C@]2(c2cc(C(F)(F)F)on2)C1)C(F)(F)F; test system = human; conditions = oral plus intravenous microtracer, 25 mg oral plus 30 µg IV, on-treatment period; quantity = subjects with adverse events; value = 50%
SMILES = CN(Cc1cnc2nc(N)nc(N)c2n1)c1ccc(C(=O)N[C@@H](CCC(=O)O)C(=O)O)cc1; test = item: any adverse event; test system = healthy human; conditions = oral, dose not given; scale = reference: subjects; quantity = subjects with adverse event; value = 3%
SMILES = CC(C)n1c(Nc2cccnc2)nc2cnc(Nc3ccc(N4CCN(C)CC4)cc3)nc21; test = item: sinus bradycardia; test system = healthy human, male; conditions = oral, dose not given, CTCAE grade 1-3; quantity = subjects with TEAE; value = 2.4%
SMILES = CC(C)c1c(C(=O)Nc2ccccc2)c(-c2ccccc2)c(-c2ccc(F)cc2)n1CC[C@@H](O)C[C@@H](O)CC(=O)O; test = item: drug-related adverse events; test system = healthy human; conditions = oral, dose not given; scale = reference: subjects; quantity = subjects with adverse event; value = 3%
SMILES = CN1C(=O)[C@@H](NC(=O)c2nnc(Cc3ccccc3)[nH]2)COc2cccnc21; test system = human, fasted; conditions = oral, 10 mg single dose; quantity = subjects with headache; value = 0%

Excerpt of the above:
SMILES = CC(=O)N(C)[C@H]1CCN(C(=O)c2cnc3c(c2)C[C@](C)(c2ccc(F)cc2)N3)C1; test system = healthy male human; conditions = oral, dose not given, all doses pooled; quantity = subjects with serious AEs; value = 0%
SMILES = C[C@@H](Oc1ccc(S(C)(=O)=O)cc1C(=O)N1C[C@@H]2C[C@]2(c2cc(C(F)(F)F)on2)C1)C(F)(F)F; test system = human; conditions = oral plus intravenous microtracer, 25 mg oral plus 30 µg IV, on-treatment period; quantity = subjects with adverse events; value = 50%
SMILES = CO[C@H]1/C=C/O[C@@]2(C)Oc3c(C)c(O)c4c(O)c(c(/C=N/N5CCN(C)CC5)c(O)c4c3C2=O)NC(=O)/C(C)=C\C=C\[C@H](C)[C@H](O)[C@@H](C)[C@@H](O)[C@@H](C)[C@H](OC(C)=O)[C@@H]1C; test system = healthy humans; conditions = oral, 600 mg, together with: gepotidacin 1500 mg; quantity = subjects with abdominal pain; value = 0%
SMILES = O=C(COc1ccc(Cl)cc1)NC12CC(c3nnc([C@H]4C[C@@H](OC(F)(F)F)C4)o3)(C1)C2; test system = humans; conditions = concentration not given; quantity = subjects with moderate TEAE; value = 28.6%
